Measurements pooled from the literature.
Each line is one published result; not all experiments were run side by side. “And” joins repeats or separate records; there may be more than shown. Numbers after ± are the reported error.
Gria1/Gria2: Glutamate receptor AMPA 1/2 (Gria1/Gria2, Rattus norvegicus, UniProt P19490+P19491)
Sequence of UniProt P19491 (whole entry, looked up): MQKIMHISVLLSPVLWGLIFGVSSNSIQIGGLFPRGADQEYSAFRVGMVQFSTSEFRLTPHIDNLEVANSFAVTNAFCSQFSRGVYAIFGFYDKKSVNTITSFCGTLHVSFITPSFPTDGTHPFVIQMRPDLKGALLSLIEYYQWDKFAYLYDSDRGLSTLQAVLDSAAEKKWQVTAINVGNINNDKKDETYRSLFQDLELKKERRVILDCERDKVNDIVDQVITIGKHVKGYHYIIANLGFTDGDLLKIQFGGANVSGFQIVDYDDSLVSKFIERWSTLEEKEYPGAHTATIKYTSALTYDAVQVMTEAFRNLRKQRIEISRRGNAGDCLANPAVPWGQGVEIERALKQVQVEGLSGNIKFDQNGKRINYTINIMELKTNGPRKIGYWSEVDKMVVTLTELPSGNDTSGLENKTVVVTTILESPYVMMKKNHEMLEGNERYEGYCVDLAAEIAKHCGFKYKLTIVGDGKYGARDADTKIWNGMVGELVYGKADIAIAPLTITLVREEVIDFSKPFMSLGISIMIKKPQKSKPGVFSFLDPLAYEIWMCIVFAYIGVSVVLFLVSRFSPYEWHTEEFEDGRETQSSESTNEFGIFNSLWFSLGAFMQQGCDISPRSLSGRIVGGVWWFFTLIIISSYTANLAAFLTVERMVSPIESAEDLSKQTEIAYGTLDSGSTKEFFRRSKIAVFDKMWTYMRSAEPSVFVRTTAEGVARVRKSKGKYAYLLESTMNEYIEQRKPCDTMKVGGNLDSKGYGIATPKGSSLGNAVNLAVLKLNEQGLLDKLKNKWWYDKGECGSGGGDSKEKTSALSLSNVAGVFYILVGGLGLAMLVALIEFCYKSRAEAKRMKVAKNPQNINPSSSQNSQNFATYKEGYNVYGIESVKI
Sequence of UniProt P19490 (whole entry, looked up): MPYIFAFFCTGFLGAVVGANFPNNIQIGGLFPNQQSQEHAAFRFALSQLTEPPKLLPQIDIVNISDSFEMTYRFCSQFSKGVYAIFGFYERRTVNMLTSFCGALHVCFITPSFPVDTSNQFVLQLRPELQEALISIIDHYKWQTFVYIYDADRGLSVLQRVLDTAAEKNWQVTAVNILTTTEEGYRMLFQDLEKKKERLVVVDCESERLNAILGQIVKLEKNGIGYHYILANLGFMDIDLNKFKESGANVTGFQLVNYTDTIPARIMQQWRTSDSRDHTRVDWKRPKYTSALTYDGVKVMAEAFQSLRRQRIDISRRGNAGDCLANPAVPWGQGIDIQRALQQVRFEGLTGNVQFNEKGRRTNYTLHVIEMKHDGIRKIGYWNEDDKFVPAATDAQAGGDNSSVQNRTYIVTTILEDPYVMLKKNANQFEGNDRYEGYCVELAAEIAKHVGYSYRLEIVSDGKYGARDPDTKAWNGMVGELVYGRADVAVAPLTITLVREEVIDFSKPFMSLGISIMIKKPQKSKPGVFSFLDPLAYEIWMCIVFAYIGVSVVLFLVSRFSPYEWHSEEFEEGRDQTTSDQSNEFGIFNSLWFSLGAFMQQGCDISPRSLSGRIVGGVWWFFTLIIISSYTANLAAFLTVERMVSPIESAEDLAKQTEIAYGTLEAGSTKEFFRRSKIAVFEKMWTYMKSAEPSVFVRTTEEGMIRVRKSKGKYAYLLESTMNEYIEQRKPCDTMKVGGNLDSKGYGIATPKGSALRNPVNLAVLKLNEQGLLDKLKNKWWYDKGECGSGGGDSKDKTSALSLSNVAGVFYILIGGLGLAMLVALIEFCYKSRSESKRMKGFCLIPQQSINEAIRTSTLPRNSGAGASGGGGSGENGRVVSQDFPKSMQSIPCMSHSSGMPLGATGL
Sodium- and chloride-dependent glycine transporter 2: Sodium- and chloride-dependent glycine transporter 2 (Homo sapiens, UniProt Q9Y345)
Sequence of UniProt Q7Z5P4 (whole entry, looked up): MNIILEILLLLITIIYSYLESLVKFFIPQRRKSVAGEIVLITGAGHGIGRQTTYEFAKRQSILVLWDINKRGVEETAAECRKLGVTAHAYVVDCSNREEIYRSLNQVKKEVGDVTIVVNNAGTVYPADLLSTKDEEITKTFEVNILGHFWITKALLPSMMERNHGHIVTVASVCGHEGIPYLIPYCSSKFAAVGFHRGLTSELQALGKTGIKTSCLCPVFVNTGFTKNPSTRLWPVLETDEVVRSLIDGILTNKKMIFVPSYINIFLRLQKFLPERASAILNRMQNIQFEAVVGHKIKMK
Sequence of UniProt P51946 (whole entry, looked up): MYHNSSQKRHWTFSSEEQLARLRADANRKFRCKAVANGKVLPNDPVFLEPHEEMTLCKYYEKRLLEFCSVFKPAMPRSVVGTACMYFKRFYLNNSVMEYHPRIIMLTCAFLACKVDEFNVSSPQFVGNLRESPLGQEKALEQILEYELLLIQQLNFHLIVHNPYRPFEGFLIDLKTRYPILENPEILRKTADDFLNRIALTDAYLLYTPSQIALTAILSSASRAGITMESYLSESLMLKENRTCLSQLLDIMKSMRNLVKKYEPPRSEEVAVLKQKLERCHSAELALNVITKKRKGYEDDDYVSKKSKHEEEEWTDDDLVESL
Sequence of UniProt Q13148 (whole entry, looked up): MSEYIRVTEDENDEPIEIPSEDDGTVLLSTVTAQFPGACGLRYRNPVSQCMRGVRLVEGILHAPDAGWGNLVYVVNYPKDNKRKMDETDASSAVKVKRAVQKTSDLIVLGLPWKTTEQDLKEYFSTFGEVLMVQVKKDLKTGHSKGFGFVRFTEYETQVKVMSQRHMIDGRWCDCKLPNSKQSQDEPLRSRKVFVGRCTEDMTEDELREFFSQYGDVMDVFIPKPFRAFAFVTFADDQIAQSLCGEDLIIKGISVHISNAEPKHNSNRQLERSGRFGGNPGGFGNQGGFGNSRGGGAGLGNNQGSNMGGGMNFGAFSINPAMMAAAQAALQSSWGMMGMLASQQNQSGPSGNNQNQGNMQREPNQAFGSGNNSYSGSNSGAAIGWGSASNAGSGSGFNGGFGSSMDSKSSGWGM
Sequence of UniProt Q06180 (whole entry, looked up): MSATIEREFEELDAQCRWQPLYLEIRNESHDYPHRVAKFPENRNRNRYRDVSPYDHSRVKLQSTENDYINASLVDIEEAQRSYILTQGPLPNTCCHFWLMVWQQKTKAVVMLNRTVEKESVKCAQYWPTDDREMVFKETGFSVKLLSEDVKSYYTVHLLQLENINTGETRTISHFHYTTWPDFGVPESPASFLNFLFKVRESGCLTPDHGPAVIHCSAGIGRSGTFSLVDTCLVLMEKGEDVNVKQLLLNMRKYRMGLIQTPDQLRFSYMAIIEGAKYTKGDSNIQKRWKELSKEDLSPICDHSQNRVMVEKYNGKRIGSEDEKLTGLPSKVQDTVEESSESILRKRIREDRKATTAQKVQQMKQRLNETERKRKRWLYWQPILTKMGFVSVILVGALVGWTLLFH
Sequence of UniProt Q9Y345 (whole entry, looked up): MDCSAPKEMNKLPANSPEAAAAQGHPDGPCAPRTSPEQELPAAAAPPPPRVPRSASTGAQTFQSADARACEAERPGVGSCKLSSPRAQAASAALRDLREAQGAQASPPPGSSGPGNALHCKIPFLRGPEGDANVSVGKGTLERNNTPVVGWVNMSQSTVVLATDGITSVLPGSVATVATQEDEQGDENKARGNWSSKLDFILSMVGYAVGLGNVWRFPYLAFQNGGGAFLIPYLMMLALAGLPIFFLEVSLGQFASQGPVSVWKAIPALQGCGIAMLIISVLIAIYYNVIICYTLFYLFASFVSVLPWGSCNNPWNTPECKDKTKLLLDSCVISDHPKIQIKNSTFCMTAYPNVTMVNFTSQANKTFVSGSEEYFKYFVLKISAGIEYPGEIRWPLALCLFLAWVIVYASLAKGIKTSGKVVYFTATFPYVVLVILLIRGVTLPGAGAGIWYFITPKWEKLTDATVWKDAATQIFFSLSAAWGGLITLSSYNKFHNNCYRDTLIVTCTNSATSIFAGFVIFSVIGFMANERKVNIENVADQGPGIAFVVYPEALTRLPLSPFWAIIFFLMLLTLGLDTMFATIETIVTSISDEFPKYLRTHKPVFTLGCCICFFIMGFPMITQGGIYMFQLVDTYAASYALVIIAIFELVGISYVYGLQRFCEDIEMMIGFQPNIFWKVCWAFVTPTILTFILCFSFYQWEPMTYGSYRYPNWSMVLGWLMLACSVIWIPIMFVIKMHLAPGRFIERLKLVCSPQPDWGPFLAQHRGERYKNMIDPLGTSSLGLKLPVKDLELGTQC
Sequence of UniProt O43570 (whole entry, looked up): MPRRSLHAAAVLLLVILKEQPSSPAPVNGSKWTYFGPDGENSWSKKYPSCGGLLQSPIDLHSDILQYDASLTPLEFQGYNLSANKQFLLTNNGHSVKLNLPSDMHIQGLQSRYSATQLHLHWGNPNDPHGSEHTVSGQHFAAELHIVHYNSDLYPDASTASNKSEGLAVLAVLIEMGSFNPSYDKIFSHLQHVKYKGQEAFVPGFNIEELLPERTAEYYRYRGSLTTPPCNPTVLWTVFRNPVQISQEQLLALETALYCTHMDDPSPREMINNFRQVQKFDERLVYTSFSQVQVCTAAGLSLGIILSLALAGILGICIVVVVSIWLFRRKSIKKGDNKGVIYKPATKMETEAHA
Sequence of UniProt P32320 (whole entry, looked up): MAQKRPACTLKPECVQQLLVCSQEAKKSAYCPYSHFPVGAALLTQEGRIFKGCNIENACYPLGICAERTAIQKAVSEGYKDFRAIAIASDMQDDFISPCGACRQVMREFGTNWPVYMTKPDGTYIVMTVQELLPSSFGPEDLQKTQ
Sequence of UniProt P08670 (whole entry, looked up): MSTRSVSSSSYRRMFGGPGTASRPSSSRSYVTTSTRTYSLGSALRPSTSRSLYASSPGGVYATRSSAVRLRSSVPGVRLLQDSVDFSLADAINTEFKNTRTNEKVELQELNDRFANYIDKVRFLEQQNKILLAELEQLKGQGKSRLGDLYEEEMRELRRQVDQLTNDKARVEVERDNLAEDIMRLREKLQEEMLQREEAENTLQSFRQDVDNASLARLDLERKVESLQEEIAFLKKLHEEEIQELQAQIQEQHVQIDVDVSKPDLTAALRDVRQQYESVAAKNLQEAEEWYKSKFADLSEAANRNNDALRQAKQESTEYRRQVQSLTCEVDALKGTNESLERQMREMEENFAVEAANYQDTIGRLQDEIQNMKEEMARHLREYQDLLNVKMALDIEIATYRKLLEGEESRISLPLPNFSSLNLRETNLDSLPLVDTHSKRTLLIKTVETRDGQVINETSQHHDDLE

| Structure (SMILES) | tested on | assay | system | setting | how to read | endpoint | value |
| --- | --- | --- | --- | --- | --- | --- | --- |
| CC(C)(C)c1ccc(COc2cccc(C(=O)O)c2)cc1 | Nuclear receptor subfamily 4 group A member 2 (Homo sapiens, UniProt P43354) | isothermal titration calorimetry |  | concentration not given, 25 °C |  | binding stoichiometry | 1.06 |
| O=C(O)Cc1cc2c(cc1C(=O)c1cccc(Br)c1)OCO2 | Gria1/Gria2 | glutamate-evoked current, whole-cell patch clamp | HEK-293T | concentration not given |  | current amplitude | 101 ± 6 pA |
| CC(C)[C@@H]1NC(=O)[C@H](Cc2ccccc2)NC(=O)CSC[C@@H](C(N)=O)NC(=O)[C@H](CCC(=O)O)NC(=O)[C@H](CO)NC(=O)[C@H](Cc2c[nH]c3cccc(Cl)c23)NC(=O)[C@H](C2CCCCC2)NC(=O)[C@H](C(C)C)NC(=O)[C@H](Cc2ccc(O)cc2)NC(=O)[C@H](CC(=O)O)NC(=O)[C@H](Cc2c[nH]c3ccccc23)NC(=O)[C@H](Cc2ccc(N)nc2)NC(=O)[C@H](Cc2c[nH]c3ccc(Cl)cc23)NC(=O)[C@H](CCC(=O)O)NC1=O | Interleukin-1 receptor-like 2 (IL1RL2, Homo sapiens, UniProt Q9HB29) | IL-8 release, antagonist | A-431 | 80 µM, 18 h, added: IL-36γ | relative to: untreated | remaining activity | 88.9% |
| O=C(NCc1cn(-c2ccccc2)nc1-c1ccccc1)c1cc([N+](=O)[O-])cc([N+](=O)[O-])c1 | Trypanosoma cruzi | reporter mRNA translation, inhibitor, refers to: Renilla luciferase mRNA | cell-free extract | concentration not given, test 1 | relative to: positive over negative control | translation activity | 84.2% |
| O[C@@H]1[C@@H](O)[C@H](Cl)C=C[C@H]1O | GBA1 (Homo sapiens, UniProt P04062) | covalent inhibitor |  |  | relative to: fluoride over chloride | kinact/Ki ratio | ~10 fold |
| COc1cc2ncnc(Nc3ccc(Oc4ccccc4C)cc3)c2cc1OC | SMUG1 (Homo sapiens, UniProt Q53HV7) | enzyme activity, activator, fluorescence |  | 20 µM | relative to: control | activity | 500 ± 100% |
| CC(=O)c1cnc(NS(=O)(=O)c2ccc(Cl)c(Cl)c2)nc1 | 17-beta-hydroxysteroid dehydrogenase 13 (Homo sapiens, UniProt Q7Z5P4) | enzyme activity | human hepatocytes, scramble siRNA, culture medium | 120 h | relative to: scramble siRNA control | oxidized product ratio | 0.121 and 0.105 and 0.109 |
| CCCCCC(O)/C=C/C=O (stereo not shown) | Cytidine deaminase (CDA, Homo sapiens, UniProt P32320) | competitive isoTOP-ABPP | proteome, soluble, MDA-MB-231 | 100 µM, added: iodoacetamide probe | relative to: DMSO over compound-treated, higher = stronger cysteine blockade | isoTOP-ABPP competition ratio | 2.5 |
| CC1=CC(C)=[N+]2C1=C(CCCN1CCC(c3ccccc3)CC1)c1c(C)cc(C)n1[B-]2(F)F | Sodium- and chloride-dependent glycine transporter 2 | MS binding competition |  | 10 µM |  | remaining specific binding | 96.2 ± 5.5% |
| COC(=O)Cc1cc2c(cc1C(=O)c1ccccc1Cl)OCO2 | Gria1/Gria2 | glutamate-evoked current, whole-cell patch clamp | HEK-293T | concentration not given, pH 7.4, holding potential -60 mV, added: 10 mM glutamate |  | current amplitude | 256 ± 16 pA |
| CC(=O)C12NC(C)(C)CC1(C)C(=O)C1=C2c2c(c3c4n2C(C)(C)CC2=C4C4(CC(C)(C)NC(C)(C4)C2=O)CC3(C)C)C(=O)C(C)(C)N1 (single isomer, unassigned; (-)) | TRPM3 (Homo sapiens, UniProt Q9HCF6) |  | HEK293T | 10 µM |  | agonist activity | 1.53 ± 0.01% |
| COC1CN([C@H]2CC[C@H]([C@@]3(C)Oc4c(Cl)cc(C(=O)NCc5c(SC)cc(C)[nH]c5=O)c(C)c4O3)CC2)C1 |  | RNA-seq, refers to: HOXA4 | human, whole blood | dose not given, 24 h | relative to: pretreatment baseline | log2 fold change | 2.46 |
| O=C(O)Cc1cc2c(cc1C(=O)c1ccccc1I)OCO2 | Gria1/Gria2 | whole-cell patch clamp | HEK-293T | concentration not given, added: glutamate |  | deactivation time constant | 3.2 ± 0.3 ms |
| Nc1ncc(-c2cc(-c3cnn(CC(F)(F)F)c3)ncc2F)nc1C(=O)NC1CNCC(F)C1 (stereo not shown) | KIT | KINOMEscan competition binding |  | 1 µM | relative to: DMSO control | remaining binding | 100% |
| NC(=NO)NCCC[C@H](N)C(=O)O | Arginase (Schistosoma mansoni, UniProt Q6WVP6) | isothermal titration calorimetry |  |  |  | stoichiometry second site | 2.8 ± 0.2 |
| CN(Cc1ccc(/C=C/C(=O)NO)cc1)CC12CC3CC(CC(C3)C1)C2 | human M3 receptor | antagonist radioligand binding |  | 0.05 µM |  | inhibition | 6% |

| Structure (SMILES) | tested on | assay | system | setting | how to read | endpoint | value |
| --- | --- | --- | --- | --- | --- | --- | --- |
| O=C1c2sc(-c3ccc(N4CCC(F)C4)nc3F)nc2CCN1c1cccnc1 (stereo not shown) | TAR DNA-binding protein 43, aggregated (TARDBP, Homo sapiens, UniProt Q13148) | radioligand binding | human, FTLD-TDP type B extract | added: radioligand 26.56 nM |  | specific binding | 3.49 nM and 2.61 nM |
| CCCCCc1ccc(Cc2cc(/C=C/C(=O)OC)cc3cccnc23)cc1 | Glideosome-associated protein 50 (GAP50, Plasmodium falciparum, UniProt Q8I2X3) | differential scanning fluorimetry |  |  |  | ΔTm | 0 °C |
| CC1CCC2C(C)(C)C(O)CCC2(C)C12Cc1c(O)cc(CO)c(C=O)c1O2 (stereo not shown) | StaI Stachybotrys chartarum | substrate |  | 30 min, pH 7.0, 45 °C |  | Km | 428 µM |
| N[C@H]1CC[C@H](Nc2nccc(-c3cccnc3Oc3ccc(NC(=O)NC4CC4)c4ccccc34)n2)CC1 | Cyclin-H (Homo sapiens, UniProt P51946) | kinobead competition pulldown, refers to: CCNH | HEK293/HCT116 lysate mixture | 10 µM, 1 h, 4 °C | lower = stronger competition | log2 LFQ intensity | 22.9 and 22.8 and 22.1 and 22.5 |
| COc1ccc(CN2CC3CCCCN3C2=O)cc1 (stereo not shown) | Uridine nucleoside ribohydrolase (Trichomonas vaginalis, UniProt A2FTT0) | 19F NMR |  | 50 µM, added: 0.01% Triton X-100 |  | inhibition | 71.1% |
| OC(COc1ccc2cc(Br)ccc2c1)Cn1ccnc1 (stereo not shown) | Trypanosoma cruzi | reporter mRNA translation, inhibitor, refers to: Renilla luciferase mRNA | cell-free extract | concentration not given, test 3 | relative to: positive over negative control | translation activity | 109% |
| COc1cc(Nc2nccc(-c3cnn4nc(OC)ccc34)n2)cc(C(F)(F)F)c1 | Tyrosine-protein kinase ABL1, phosphorylated (ABL1, Homo sapiens, UniProt P00519, M351T) | binding |  | 1 µM |  | remaining binding | 100% |
| C#CC[C@H](NC(=O)c1ccc(C(=O)c2ccccc2)cc1)C(=O)NCCCCCC(=O)N[C@@H](CCCCNC(=O)CSCCNC(=O)CCNC(=O)[C@H](O)C(C)(C)COP(=O)(O)OP(=O)(O)OC[C@H]1O[C@@H](n2cnc3c(N)ncnc32)[C@H](O)[C@@H]1OP(=O)(O)O)C(N)=O | Vimentin (VIM, Homo sapiens, UniProt P08670) | affinity enrichment LC-MS/MS | HEK293 cell extract, PCAF transfected |  | relative to: 1 over empty vector | enrichment ratio | 2.7 |
| Cn1c(=O)n(C2CCC(=O)NC2=O)c2ccc(C3CCN(CC(=O)Nc4cccc(CS(=O)(=O)N5CC[C@H](Nc6cccc(-c7sc(C(=O)O)c(OCC(=O)O)c7Cl)c6)CC5(C)C)c4)CC3)cc21 (stereo partly shown) | Tyrosine-protein phosphatase non-receptor type 2 (Ptpn2, Mus musculus, UniProt Q06180) | degrader, Western blot | B16-F10 | 0.01 µM |  | remaining protein | 32.3% and 33.1% |
| Cc1cc(-c2ccccc2)cc(C(=O)NNS(=O)(=O)c2ccccc2)c1F | KAT5 (Homo sapiens, UniProt Q92993) | SPR |  | 0.07 µM | higher = more binding | SPR binding response | 0.11 RU |
| CCc1cc(O)cc2c(/C=N/NC(=N)NCCc3ccc(Cl)cc3)c[nH]c12 | RXFP3 (Homo sapiens, UniProt Q9NSD7, S159L) |  | HEK-293T |  | relative to: wild type | Emax | 80.6 ± 10.5% |
| CCCCCCCCCCCCC/C=C/C=O | Interferon-induced protein with tetratricopeptide repeats 3 (IFIT3, Homo sapiens, UniProt O14879) | competitive isoTOP-ABPP | proteome, soluble, MDA-MB-231 | 100 µM, 60 min, added: iodoacetamide probe | relative to: DMSO over compound-treated, higher = stronger cysteine blockade | isoTOP-ABPP competition ratio | 1.3 |
| N#C[Se]CCCCCCOc1ccc2c(-c3ccccc3)cc(=O)oc2c1 | CA12 (Homo sapiens, UniProt O43570) | stopped-flow CO2 hydration |  |  | relative to: Ki CA II over Ki CA XII | selectivity ratio | > 609 |
| COC(=O)C1=C(NCCC=C(c2ccccc2)c2ccccc2)CCNC1 | Sodium- and chloride-dependent glycine transporter 2 | MS binding competition |  | 10 µM |  | remaining specific binding | 112 ± 1.6% |
| C#CCOC(=O)[C@@]1(C)C=C(C(=O)OC(C)(C)C)C(=O)CC1 | MAPK1 (Homo sapiens, UniProt P28482) | enzyme activity, D-SENSOR |  | 400 µM, mean of replicates |  | normalized kinase activity | 0.444 |

A few entries again:
| Structure (SMILES) | tested on | assay | system | setting | how to read | endpoint | value |
| --- | --- | --- | --- | --- | --- | --- | --- |
| CC(C)[C@@H]1NC(=O)[C@H](Cc2ccccc2)NC(=O)CSC[C@@H](C(N)=O)NC(=O)[C@H](CCC(=O)O)NC(=O)[C@H](CO)NC(=O)[C@H](Cc2c[nH]c3cccc(Cl)c23)NC(=O)[C@H](C2CCCCC2)NC(=O)[C@H](C(C)C)NC(=O)[C@H](Cc2ccc(O)cc2)NC(=O)[C@H](CC(=O)O)NC(=O)[C@H](Cc2c[nH]c3ccccc23)NC(=O)[C@H](Cc2ccc(N)nc2)NC(=O)[C@H](Cc2c[nH]c3ccc(Cl)cc23)NC(=O)[C@H](CCC(=O)O)NC1=O | Interleukin-1 receptor-like 2 (IL1RL2, Homo sapiens, UniProt Q9HB29) | IL-8 release, antagonist | A-431 | 80 µM, 18 h, added: IL-36γ | relative to: untreated | remaining activity | 88.9% |
| COc1cc2ncnc(Nc3ccc(Oc4ccccc4C)cc3)c2cc1OC | SMUG1 (Homo sapiens, UniProt Q53HV7) | enzyme activity, activator, fluorescence |  | 20 µM | relative to: control | activity | 500 ± 100% |
| CC(=O)C12NC(C)(C)CC1(C)C(=O)C1=C2c2c(c3c4n2C(C)(C)CC2=C4C4(CC(C)(C)NC(C)(C4)C2=O)CC3(C)C)C(=O)C(C)(C)N1 (single isomer, unassigned; (-)) | TRPM3 (Homo sapiens, UniProt Q9HCF6) |  | HEK293T | 10 µM |  | agonist activity | 1.53 ± 0.01% |
